{"data": "Experimental data collected from several papers", "read-out": "metabolic stability", "host": "human", "note": "Lines come from different studies, so protocols differ."}
{"SMILES": "C=CC(=O)Nc1cccc(Cn2ncc3cnc(Nc4cnn(CCOC)c4)nc32)c1", "system": "hepatocytes", "half-life [min]": 61.2}
{"SMILES": "C/C(=N\\OCCN(C)Cc1ccccc1)c1ccc(C(F)(F)F)cc1", "system": "liver microsomes", "half-life [min]": 14.8}
{"SMILES": "Cc1c(Cc2cccc(OC(C)(C)C(=O)O)c2)c2ccc(C(=O)N[C@@H](C)c3ccc(F)c(C(C)(C)C)c3)cc2n1CC(C)C", "system": "liver microsomes", "half-life [min]": "> 60"}
{"SMILES": "O=C(N[C@@H](CCCCNC(=O)c1ccc([N+](=O)[O-])o1)c1nc2ccccc2[nH]1)c1ccc(-c2ccccc2)cc1", "system": "liver microsomes", "setting": "1 µM", "half-life [min]": 2.5}
{"SMILES": "O=C(N1CCCCC1)C12CC(c3ccccc3)(C1)C2(Cl)Cl", "system": "liver microsomes", "setting": "2 µM, pH 7.4", "half-life [min]": 25.7}
{"SMILES": "O=C(c1ccnc(N2Cc3cnn(Cc4ccc(F)cc4)c3C2)n1)N1CCOCC1", "system": "liver microsomes", "half-life [min]": 59}
{"SMILES": "C/C(N)=N/C(=N\\S(=O)(=O)c1ccc(C(F)(F)F)cc1)N1C[C@H](c2ccccc2)C(c2ccc(Cl)cc2)=N1", "system": "liver microsomes", "half-life [min]": 110}
{"SMILES": "Cc1c(Cc2ccc(F)c(OC(C)C(=O)O)c2)c2ccc(C(=O)NC(C)c3ccc(C(C)(C)C)cc3)cc2n1CC1CCC1 (stereo not shown)", "system": "liver microsomes", "half-life [min]": "> 60"}
{"SMILES": "CN(C)C(=O)c1ccnc(N2Cc3cn(Cc4cc(Cl)cc(Cl)c4)nc3C2)n1", "system": "liver microsomes", "half-life [min]": 44}
{"SMILES": "Nc1nc(SCc2ccc(Cl)cc2)nn1S(=O)(=O)c1ccc2c(c1)CCO2", "system": "liver microsomes", "setting": "1 µM, pH 7.4", "half-life [min]": 3.2}
{"SMILES": "CN(C)C(=O)c1ccnc(N2Cc3cn(Cc4ccc(F)cc4F)nc3C2)n1", "system": "liver microsomes", "half-life [min]": "> 1000"}
{"SMILES": "O=c1c(-c2cnn(-c3ccccc3)c2)c(C(F)(F)F)oc2c(O)c(O)ccc12", "system": "liver microsomes", "half-life [min]": 315}
{"SMILES": "Cc1c(Cc2ccc(Cl)c(O[C@H](C)C(=O)O)c2)c2ccc(C(=O)N[C@@H](C)c3ccc(C(C)(C)C)cc3)cc2n1C", "system": "liver microsomes", "half-life [min]": 56}
{"SMILES": "CNC(=O)C1CCCN(C(=O)C2CC3CCC2N3C(=O)[C@@H]2C[C@@H](O)CN2C(=O)NCc2cccc(Cl)c2F)C1 (mixture of isomers)", "system": "liver microsomes", "half-life [min]": 53}
{"SMILES": "CN(C)C(=O)c1cccc(N2Cc3cn(CC4CCCCC4)nc3C2)c1", "system": "liver microsomes", "half-life [min]": 26}
{"SMILES": "CC(C)C[C@H](NC(=O)[C@@H]1CCCN1C(=O)[C@@H]1CCCN1C(=O)[C@H](CC(N)=O)NC(=O)[C@@H](N)Cc1ccc(Cl)c(Cl)c1)C(=O)N[C@@H](Cc1c[nH]cn1)C(=O)N[C@@H](CO)C(=O)N[C@H](C(=O)N[C@@H](C)C(=O)O)[C@@H](C)OP(=O)(O)O", "system": "liver microsomes", "setting": "1 µM, pH 7.4", "half-life [min]": 15}
{"SMILES": "N=C(c1ccc([N+](=O)[O-])o1)N1CCC(NC(=O)c2cc(-c3ccc(F)cc3F)on2)(c2nc3ccccc3[nH]2)CC1", "system": "liver microsomes", "setting": "1 µM", "half-life [min]": 3.8}
{"SMILES": "Cc1c(Cc2ccc(Cl)c(O[C@@H](C)C(=O)O)c2)c2ccc(C(=O)N[C@@H](C)c3ccc(C(C)(C)C)cc3)cc2n1CC1CC1", "system": "liver microsomes", "half-life [min]": "> 60"}
{"SMILES": "C=C(NC(=O)c1csc(-c2nc3c(cc2O)-c2nc(cs2)C(=O)NC(C(C)O)C(=O)NC(=C(C)OC)c2nc(cs2)C(=O)NC2c4nc(cs4)C(=O)NC(COC(=O)c4c5c6c(cccc6n4O)COC(=O)C(OC4CC(C)(O)C(N(C)C)C(C)O4)C2OC5)c2nc-3cs2)n1)C(N)=O (stereo not shown)", "system": "liver microsomes", "setting": "2 µM", "half-life [min]": 128}
{"SMILES": "CN(C)C(=O)c1ccnc(N2Cc3cn(Cc4ccc(Cl)cc4)nc3C2)n1", "system": "liver microsomes", "half-life [min]": 244}
{"SMILES": "CC(C)Cn1cc(Cc2cccc(OC(C)(C)C(=O)O)c2)c2cc(F)c(C(=O)N[C@@H](C)c3cccc(C(C)(C)C)c3)cc21", "system": "liver microsomes", "half-life [min]": "> 60"}
{"SMILES": "Cc1ncsc1-c1ccc([C@@H]2CCCCCCNC(=O)C[C@@H]3N=C(c4ccc(cc4)OCCCCCC(=O)N[C@@H](C(C)(C)C)C(=O)N4C[C@H](O)C[C@H]4C(=O)N2)c2c(sc(C)c2C)-n2c(C)nnc23)cc1", "system": "liver microsomes", "setting": "1 µM", "half-life [min]": 2.7}
{"SMILES": "O=C(N1CCCCC1)C12CC(c3ccccc3)(C1)C2(Br)Br", "system": "liver microsomes", "setting": "2 µM, pH 7.4", "half-life [min]": 12}
{"SMILES": "CN(C)C(=O)c1cccc(N2Cc3cn(Cc4ccc(Cl)cc4)nc3C2)c1", "system": "liver microsomes", "half-life [min]": 50}
{"SMILES": "C/C(=N\\OCCCN1CCOCC1)c1ccc(C(F)(F)F)cc1", "system": "liver microsomes", "half-life [min]": 51}
{"SMILES": "Cc1c(Cc2cc(Cl)cc(OC(C)C(=O)O)c2)c2ccc(C(=O)NC(C)c3ccc(C(C)(C)C)cc3)cc2n1CC1CC1 (stereo not shown)", "system": "liver microsomes", "half-life [min]": 43}
{"SMILES": "CN(C)C(=O)c1ccnc(N2Cc3cn(Cc4ccc(C#N)cc4)nc3C2)n1", "system": "liver microsomes", "half-life [min]": "> 1000"}
{"SMILES": "Cc1c(Cc2ccc(OC(C)C(=O)O)cc2)c2ccc(C(=O)NC(C)c3ccc(C(C)(C)C)cc3)cc2n1C (mixture of isomers)", "system": "liver microsomes", "half-life [min]": "> 60"}
{"SMILES": "CN(C)C(=O)c1cccc(N2Cc3cn(Cc4ccc(F)c(Cl)c4)nc3C2)c1", "system": "liver microsomes", "half-life [min]": 31}
{"SMILES": "Cc1c(Cc2ccc(Cl)c(O[C@@H](C)C(=O)O)c2)c2ccc(C(=O)N[C@@H](C)c3cc(F)cc(C(C)(C)C)c3)cc2n1C", "system": "liver microsomes", "half-life [min]": "> 60"}
{"SMILES": "O=C(O)Cc1ccccc1Nc1c(Cl)cccc1Cl", "system": "hepatocytes", "setting": "1 µM", "half-life [min]": 267}
{"note": "For quick reference, copied from above:"}
{"SMILES": "CN(C)C(=O)c1ccnc(N2Cc3cn(Cc4ccc(Cl)cc4)nc3C2)n1", "system": "liver microsomes", "half-life [min]": 244}
{"SMILES": "CC(C)Cn1cc(Cc2cccc(OC(C)(C)C(=O)O)c2)c2cc(F)c(C(=O)N[C@@H](C)c3cccc(C(C)(C)C)c3)cc21", "system": "liver microsomes", "half-life [min]": "> 60"}
